Measurements of several laboratories.
A part holds a random share of what one study measured.

Block 1 — method: aptamer microarray, sandwich; form: DNA with 2'F-ANA; medium: in vitro; tested at: 200 nM; together with: Cy3 exosite-II aptamer, 400 nM; reading: higher = stronger binding; strand: GGTTGGTGTGGTTGG
Target: Prothrombin, mature alpha-thrombin (F2, Homo sapiens, UniProt P00734)
Notes: whole 15-mer aptamer, many near background
| Modification | mean fluorescence intensity [a.u.] |
| --- | --- |
| 2'F-ANA at 1 3 7 8 11 14 | 104 |
| 2'F-ANA at 1 2 3 4 5 7 10 11 15 | 47.2 |
| 2'F-ANA at 1 6 7 8 9 10 11 14 15 | 57.3 |
| 2'F-ANA at 3 5 9 13 14 15 | 74.1 |
| 2'F-ANA at 2 3 4 5 6 11 12 14 15 | 56.4 |
| 2'F-ANA at 2 3 4 8 11 13 14 | 292 |
| 2'F-ANA at 1 2 3 7 8 11 | 259 |
| 2'F-ANA at 1 2 3 9 11 12 13 | 284 |
| 2'F-ANA at 1 3 8 10 12 13 | 111 |

Block 2 — method: RNA Bind-n-Seq; form: RNA; medium: in vitro; tested at: 365 nM; relative to: no-protein control; reading: higher = stronger binding
Target: RNA binding protein fox-1 homolog 2, RRM domain, GST-SBP tag (RBFOX2, Homo sapiens, UniProt O43251-10, residues 100-194)
Notes: natural RNA segment, single round, ends assumed
Constant ends, left off below: GGGAGUUCUACAGUCCGACGAUC … UGGAAUUCUCGGGUGCCAA
Construct (chain): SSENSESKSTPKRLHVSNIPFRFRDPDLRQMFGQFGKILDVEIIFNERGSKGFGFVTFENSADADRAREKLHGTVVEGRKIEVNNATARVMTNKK
| Strand | RBNS enrichment (R) |
| --- | --- |
| UCUGUCUCUUGUUUAUAUGAAUAAGUUCUCGUCGUUUGUCCUUUAUGUAUUCUUCUCUACCGUAUAACACACUGAAACUGUAUCUACUUGCUGUGUUGCAAUAUUUUGCU | 0.589 |
| UCCCAGCUGUCCUAGUGUCAAUAAAGCAUUGUGUGUAAAUGUUCUUCUUGCAUUCUUUCUAAGCAGUCAGCAAGUAUUUAUUAAAUGCUUUAAGGAAAACAAUAAUAGAG | 0.591 |
| AGGUGGCAUCUGACUGCGGCUCAUACAGGUCACCCUGAAGGGCCACGUGCUUUUAGCAGUUGGCUGGAAUGUGUUCACUAGGUUCCGUUAUGUUUGGUAAUAUCAUCUUG | 0.689 |
| GGGUGGACAGUCCUAAUGGGGAUCUCCAGCUCCUUCCUGUGGGCUGCCACAGACAGCUACCCCCAGAAGGGUCAAUGUUGGGAGUGGUUGUGGCUCUGAGCUGCUCUACA | 0.73 |
| AUUUGGGAUAGAUUACAUAGGAGUAUGGAGUAUGCUGUAAAUAAAAAUACAAGCUAGUGCUUUGUCUUAGUAGUUUUAAGAAAUUAAAGCAAACAAAUUUAAGUUUUCUU | 0.412 |
| CAUUACACUCCCCCCUACCUUUCGCCCCCUCCUCACCAUUAUUGAGACCACCAAAGAUUCCCUGUCCAUGACCUCUGAGGCGGGGUUACCUUGCUUGUCGGACCAAGGCA | 0.466 |
| GAAGAACACUUUUCUUGGCUACAUUUGGAGGAUACCCAGGGAGUCUUGGGUGUUCCUUAUCUGGGGAAGCAAACAUUUCACUAGUCUCUUUUUUUCAUCCUUUAAAUUGU | 0.339 |
| AAGAAGUUAACAUGAACUCUUGAAGUCACACCAGGGCAACUCUUGGAAGAAAUAUAUUUGCAUAUUGAAAAGCACAGAGGAUUUCUUUAGUGUCAUUGCCGAUUUUGGCU | 0.594 |

Block 3 — method: protein binding microarray; form: double-stranded DNA, one strand shown; medium: in vitro; tested at: not given; relative to: not given; reading: higher = stronger binding
Target: Histone acetyltransferase KAT6A, both winged helices, GST fusion (KAT6A, Homo sapiens, UniProt Q92794, residues 1-181)
Notes: 8-mer, flanks averaged, mean of 2 arrays, mostly near background
Target sequence (chain): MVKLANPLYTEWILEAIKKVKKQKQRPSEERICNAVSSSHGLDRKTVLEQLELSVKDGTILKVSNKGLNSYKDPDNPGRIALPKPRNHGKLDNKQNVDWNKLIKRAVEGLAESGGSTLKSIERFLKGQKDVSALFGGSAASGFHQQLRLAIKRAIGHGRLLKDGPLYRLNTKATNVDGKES
| Strand | E-score |
| --- | --- |
| AGTCCCAG | -0.0474 |
| CTGTACAC | 0.0718 |
| ATGGAGTA | -0.213 |
| GCAATTCC | 0.037 |
| ATCAGAAA | -0.118 |
| CCCGGCGG | 0.306 |
| AGATTTGC | 0.00078 |
| ACTCTTGC | -0.172 |
| AGATGGGG | -0.248 |
| AATGTCTG | -0.0757 |
| CTGGGTCA | -0.188 |
| AAAATGTT | 0.00219 |

Other studies, line by line
| Molecule | target | test | system | setting | how to read | quantity | result |
| --- | --- | --- | --- | --- | --- | --- | --- |
| PhoQ, residues 284 288 289 292 302 303 ALAMYF | PhoP, residues 12 14 15 18 19 SEGLL (Escherichia coli, UniProt P23836) | Sort-seq, measured: YFP reporter | E. coli | PhoQ-PhoP variant library, together with: 10 µM Mg2+ | relative to: high Mg2+ state, higher = stronger signaling | fold induction | 14.8 |

Some of these lines once more (block 3):
| Strand | E-score |
| --- | --- |
| CTGTACAC | 0.0718 |
| ATGGAGTA | -0.213 |
| GCAATTCC | 0.037 |
| ATCAGAAA | -0.118 |
| CCCGGCGG | 0.306 |
